Measurements from different studies.
Each numbered part is a random draw from the data of one study; scales do not carry over between parts. Positions count from the first letter of the parent shown.

Sample 1 — technique: DHFR PCA, deep sequencing; sample: yeast; together with: (+)-ABA 1.4 µM; baseline: wild-type fitted maximum; reading: higher = stronger binding; endpoint: relative binding score
Target: ABI1, truncated, D143A, DHFR fusion (Arabidopsis thaliana)
Notes: methotrexate growth selection, single substitutions
Starting sequence: PYL1, truncated, DHFR fusion (Arabidopsis thaliana); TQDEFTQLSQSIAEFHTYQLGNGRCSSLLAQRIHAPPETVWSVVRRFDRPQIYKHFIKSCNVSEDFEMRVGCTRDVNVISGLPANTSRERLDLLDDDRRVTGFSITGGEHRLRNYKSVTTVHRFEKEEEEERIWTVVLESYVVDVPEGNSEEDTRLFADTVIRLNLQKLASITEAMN
D159L: -20.5%
K168Y: 17%
S9E: 71.3%
N114R: 8.15%
D144H: -7.45%

Sample 2 — target: CCNB3, cyclin fold, Cln2 fusion (human); technique: yeast growth competition, sequencing; sample: yeast; notes: weak parent motif; baseline: not given; reading: higher = stronger binding; endpoint: normalised enrichment score
Starting sequence: RB1 docking peptide (human); PKPLKKLRFDIEG
PKPLKKLRFDPEG [I11P]: -0.174
PKPLKKLRFDREG [I11R]: -0.518
PKPLKKLWFDIEG [R8W]: 0.357
KKPLKKLRFDIEG [P1K]: 0.805
PKPLKKLRFTIEG [D10T]: -0.28
PKPVKKLRFDIEG [L4V]: 0.553

Sample 3 — target: NFE2L1, bZIP domain (human); technique: DHFR protein complementation; sample: yeast; baseline: wild-type JUN-FOS pair; reading: higher = stronger binding; endpoint: binding fitness
Notes: single substitutions, most at no-binding floor
Starting sequence: JUN, bZIP domain (human); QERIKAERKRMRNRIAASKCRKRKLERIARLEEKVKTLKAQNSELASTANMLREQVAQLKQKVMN; partner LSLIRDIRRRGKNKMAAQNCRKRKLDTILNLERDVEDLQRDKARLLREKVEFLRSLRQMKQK
A49F: -1.35 natural log
A40Q: -1.47 natural log
Q41G: -1.52 natural log
I28C: -1.46 natural log
L31W: -1.16 natural log

Single results of other studies
PhoQ, residues 284 288 289 292 302 303 SVTLVV  fold induction (PhoP, residues 12 14 15 18 19 NNFVT (Escherichia coli, UniProt P23836); Sort-seq, item: YFP reporter; E. coli; PhoQ-PhoP variant library, together with: 10 µM Mg2+; baseline: high Mg2+ state, higher = stronger signaling): 4.52

A few entries again (sample 3):
I28C: -1.46 natural log
L31W: -1.16 natural log
